Literature values that unrelated publications cite.
Lines come from different studies, so protocols differ. ± gives the spread as reported.
HLA class I histocompatibility antigen, A alpha chain allele A*26:03: HLA class I histocompatibility antigen, A alpha chain, allele A*26:03 (Homo sapiens, UniProt P04439)
cya: cya (Bordetella pertussis, UniProt P0DKX7)
HLA class I histocompatibility antigen, A alpha chain allele A*25:01: HLA class I histocompatibility antigen, A alpha chain, allele A*25:01 (Homo sapiens, UniProt P04439)

Sequences of proteins named here, by UniProt entry; tags and fusion partners are left off. Residues count along the entry.
UniProt P0DKX7, 1-373 limits assumed: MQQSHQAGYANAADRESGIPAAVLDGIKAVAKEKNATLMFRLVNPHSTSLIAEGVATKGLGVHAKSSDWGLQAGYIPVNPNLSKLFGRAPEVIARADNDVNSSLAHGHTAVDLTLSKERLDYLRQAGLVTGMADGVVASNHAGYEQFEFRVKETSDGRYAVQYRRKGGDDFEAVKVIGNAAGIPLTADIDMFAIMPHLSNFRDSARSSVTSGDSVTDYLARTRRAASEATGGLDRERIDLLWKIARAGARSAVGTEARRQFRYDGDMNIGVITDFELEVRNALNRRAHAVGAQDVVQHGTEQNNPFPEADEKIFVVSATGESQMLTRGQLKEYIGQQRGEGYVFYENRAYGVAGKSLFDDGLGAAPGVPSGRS
UniProt P08253, 110-660 limits assumed: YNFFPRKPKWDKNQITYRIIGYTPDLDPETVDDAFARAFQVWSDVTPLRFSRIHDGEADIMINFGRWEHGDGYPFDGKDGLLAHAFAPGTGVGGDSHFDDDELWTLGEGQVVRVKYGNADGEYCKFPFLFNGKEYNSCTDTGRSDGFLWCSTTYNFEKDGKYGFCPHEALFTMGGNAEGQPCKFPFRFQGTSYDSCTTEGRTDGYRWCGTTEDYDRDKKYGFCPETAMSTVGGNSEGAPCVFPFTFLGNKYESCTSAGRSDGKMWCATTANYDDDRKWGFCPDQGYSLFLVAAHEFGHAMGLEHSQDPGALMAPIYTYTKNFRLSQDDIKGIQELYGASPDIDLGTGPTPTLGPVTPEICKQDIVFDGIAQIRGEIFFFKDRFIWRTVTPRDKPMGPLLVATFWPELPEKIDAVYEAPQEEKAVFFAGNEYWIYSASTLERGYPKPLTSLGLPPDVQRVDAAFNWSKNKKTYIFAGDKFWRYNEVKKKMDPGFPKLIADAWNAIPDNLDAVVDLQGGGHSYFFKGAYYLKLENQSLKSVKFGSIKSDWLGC
UniProt O00748, 27-559 limits assumed: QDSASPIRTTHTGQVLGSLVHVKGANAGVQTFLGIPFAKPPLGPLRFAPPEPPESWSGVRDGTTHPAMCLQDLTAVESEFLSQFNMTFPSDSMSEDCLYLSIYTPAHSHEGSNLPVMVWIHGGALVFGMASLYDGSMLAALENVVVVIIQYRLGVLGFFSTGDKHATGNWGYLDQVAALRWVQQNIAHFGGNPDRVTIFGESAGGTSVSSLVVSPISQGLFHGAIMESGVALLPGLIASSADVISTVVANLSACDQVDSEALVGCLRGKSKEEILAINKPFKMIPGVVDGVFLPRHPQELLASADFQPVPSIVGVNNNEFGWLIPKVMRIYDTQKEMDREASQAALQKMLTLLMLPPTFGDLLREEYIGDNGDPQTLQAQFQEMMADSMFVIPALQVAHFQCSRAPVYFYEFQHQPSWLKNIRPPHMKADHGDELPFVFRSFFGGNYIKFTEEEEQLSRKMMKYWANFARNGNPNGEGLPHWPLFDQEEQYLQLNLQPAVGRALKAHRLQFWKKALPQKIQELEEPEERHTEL
UniProt Q05941, 23-502 limits assumed: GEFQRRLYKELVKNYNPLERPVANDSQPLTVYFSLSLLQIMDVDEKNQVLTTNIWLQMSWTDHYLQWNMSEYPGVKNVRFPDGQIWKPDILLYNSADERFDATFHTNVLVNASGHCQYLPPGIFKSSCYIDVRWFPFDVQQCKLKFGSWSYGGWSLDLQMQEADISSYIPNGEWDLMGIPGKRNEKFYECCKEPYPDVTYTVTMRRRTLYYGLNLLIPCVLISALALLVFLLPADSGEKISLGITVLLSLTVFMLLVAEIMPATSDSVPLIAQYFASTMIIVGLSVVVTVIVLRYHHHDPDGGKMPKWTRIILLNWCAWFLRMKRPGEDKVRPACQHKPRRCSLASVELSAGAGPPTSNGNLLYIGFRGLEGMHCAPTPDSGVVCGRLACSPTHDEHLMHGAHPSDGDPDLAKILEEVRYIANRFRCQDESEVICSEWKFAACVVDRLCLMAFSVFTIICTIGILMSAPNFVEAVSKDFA
UniProt P21917, whole entry: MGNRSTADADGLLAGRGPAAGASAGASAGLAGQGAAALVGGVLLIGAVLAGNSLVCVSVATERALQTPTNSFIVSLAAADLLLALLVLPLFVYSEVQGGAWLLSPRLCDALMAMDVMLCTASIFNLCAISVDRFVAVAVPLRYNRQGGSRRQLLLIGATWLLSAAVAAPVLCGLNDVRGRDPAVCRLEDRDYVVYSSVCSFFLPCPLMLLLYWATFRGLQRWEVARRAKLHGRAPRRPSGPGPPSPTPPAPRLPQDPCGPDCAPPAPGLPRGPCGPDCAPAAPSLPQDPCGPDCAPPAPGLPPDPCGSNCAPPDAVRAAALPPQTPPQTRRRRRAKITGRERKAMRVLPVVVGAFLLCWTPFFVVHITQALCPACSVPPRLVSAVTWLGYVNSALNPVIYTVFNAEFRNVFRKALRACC
UniProt Q99816, whole entry, looked up: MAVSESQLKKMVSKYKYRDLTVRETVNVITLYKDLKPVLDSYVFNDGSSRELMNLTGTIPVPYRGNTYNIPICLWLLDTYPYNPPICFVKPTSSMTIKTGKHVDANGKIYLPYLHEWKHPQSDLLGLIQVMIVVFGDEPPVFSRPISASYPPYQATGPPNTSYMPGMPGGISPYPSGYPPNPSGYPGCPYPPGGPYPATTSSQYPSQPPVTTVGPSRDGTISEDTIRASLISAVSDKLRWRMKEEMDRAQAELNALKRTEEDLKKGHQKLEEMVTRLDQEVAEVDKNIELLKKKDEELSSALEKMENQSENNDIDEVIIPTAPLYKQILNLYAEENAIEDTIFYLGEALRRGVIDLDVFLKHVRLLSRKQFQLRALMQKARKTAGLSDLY
UniProt P0DOF5, whole entry V27A: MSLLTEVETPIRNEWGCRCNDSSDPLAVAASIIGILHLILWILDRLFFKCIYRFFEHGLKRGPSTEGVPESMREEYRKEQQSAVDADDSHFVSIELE
UniProt P41240, 82-171 limits assumed: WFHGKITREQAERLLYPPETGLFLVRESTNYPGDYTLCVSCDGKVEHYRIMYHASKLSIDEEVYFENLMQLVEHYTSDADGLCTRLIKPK

O=C(Nc1cccc(C2=NCCN2)c1)c1ccc(-c2ccc(C(=O)Nc3cccc(C4=NCCN4)c3)cc2)cc1
ΔTm (DSC; AT-rich DNA dodecamer duplex; higher = stronger binding): 11 °C

CC(C)C[C@H](NC(=O)[C@@H]1CCCN1)C(=O)NCC(=O)N[C@H](C(=O)N[C@@H](CCCNC(=N)N)C(=O)O)C(C)C
kcat/Km (MMP2 (Homo sapiens, UniProt P08253); substrate): 14000 M⁻¹ s⁻¹

CC(C)C[C@H](NC(=O)[C@H](CO)NC(=O)[C@H](CCCCN)NC(=O)[C@H](CC(C)C)NC(=O)[C@H](CCCCN)NC(=O)[C@@H](N)CCC(=O)O)C(=O)N[C@@H](Cc1ccc(O)cc1)C(=O)N[C@@H](CC(N)=O)C(=O)N[C@H](C(=O)N[C@H](C(=O)O)C(C)C)[C@@H](C)O
IC50 (HLA class I histocompatibility antigen, A alpha chain allele A*26:03): > 20000 nM

Cc1cc(O)cc(C)c1C[C@H](N)C(=O)N[C@H](CCCNC(=N)N)C(=O)N[C@@H](Cc1ccccc1)C(=O)N[C@@H](CCCCN)C(=O)NCCNC(=O)[C@H](Cc1ccccc1)NC(=O)[C@H](CC1CCCCC1)NC[C@@H]1Cc2ccccc2CN1C(=O)[C@@H](N)Cc1ccc(O)cc1
Ke (delta opioid receptor; muscle contraction, antagonist; mouse vas deferens): 2.4 ± 0.58 nM

Cc1cc(C)c(S(=O)(=O)Nc2ccccc2)cc1S(=O)(=O)Nc1ccccc1
Ki (Cocaine esterase (CES2, Homo sapiens, UniProt O00748); enzyme activity, inhibitor; with: CPT-11 substrate): > 100000 nM

COCCC1CC1c1cncc(OC[C@@H]2CCN2)c1 (stereo partly drawn)
Ki (Chrna7 (Rattus norvegicus, UniProt Q05941); binding): > 10000 nM

CC(C)C[C@H](NC(=O)[C@H](CC(=O)O)NC(=O)[C@H](CCCCN)NC(=O)[C@H](CC(C)C)NC(=O)[C@H](CCCNC(=N)N)NC(=O)[C@H](CCCNC(=N)N)NC(=O)[C@H](CCCCN)NC(=O)[C@H](Cc1ccccc1)NC(=O)[C@@H](N)CCC(=O)O)C(=O)O
IC50 (HLA class I histocompatibility antigen, A alpha chain allele A*26:03): > 20000 nM

COc1cc(CCNCc2cc(OC)c(OC)c(OC)c2)c(OC)cc1Cl
Ki (5-HT2A receptor): 38 nM

Cc1cn([C@@H]2CC[C@H](OC(C(=O)O)P(=O)(O)O)C2)c(=O)[nH]c1=O (relative stereo)
IC50 (Gag-Pol polyprotein, reverse transcriptase (gag-pol, Human immunodeficiency virus 1, UniProt P03366); reverse transcriptase activity, inhibitor; with: poly(rA)·oligo(dT) template/primer): 400 nM

Clc1ccc(N2CCN(Cc3cnn4ccccc34)CC2)cc1
Ki (DRD4 (Homo sapiens, UniProt P21917); binding): 3.1 ± 0.3 nM

CC(C)[C@H](NC(=O)[C@H](CCCNC(=N)N)NC(=O)CN)C(=O)N[C@H](C(=O)N[C@@H](CCC(=O)O)C(=O)N1CCC[C@H]1C(=O)N[C@@H](CO)C(=O)N[C@@H](C)C(=O)N1CCC[C@H]1C(=O)N1CCC[C@H]1C(=O)N[C@@H](Cc1c[nH]c2ccccc12)C(=O)N[C@@H](CCC(=O)O)C(=O)NCC(=O)N1CCC[C@H]1C(=O)O)C(C)C
Kd (Tumor susceptibility gene 101 protein, UEV domain (Homo sapiens, UniProt Q99816); 25 °C): 2300 nM

C1CCC2(CC1)CCNCC2
activity against V27A mutant (Matrix protein 2 (Influenza A virus, UniProt P0DOF5, V27A); concentration not given): no effect

CNc1ccccc1C(=O)O[C@H]1[C@@H](O)[C@H](n2cnc3c(=O)[nH]cnc32)O[C@@H]1COP(=O)(O)OP(=O)(O)OP(=O)(O)O
Ki (cya; inhibitor): 600 ± 100 nM

CC[C@H](C)[C@H](NC(=O)[C@H](CO)NC(=O)[C@H](Cc1ccc(O)cc1)NC(=O)[C@H](CCC(N)=O)NC(=O)[C@H](CC(C)C)NC(=O)[C@@H](N)Cc1ccc(O)cc1)C(=O)N[C@@H](CO)C(=O)N[C@H](C(=O)N[C@@H](C)C(=O)O)[C@@H](C)O
IC50 (HLA class I histocompatibility antigen, A alpha chain allele A*25:01): > 20000 nM

CNc1ccccc1C(=O)O[C@H]1[C@@H](O)[C@H](n2ccc(N)nc2=O)O[C@@H]1COP(=O)(O)OP(=O)(O)OP(=O)(O)O
Ki (cya; inhibitor): 1100 ± 100 nM

CC[C@H](NC(=O)[C@H](CCCNC(=N)N)NC(=O)CCNC(=O)CCNC(=O)COCCOCCNC(=O)CCCC[C@@H]1SC[C@@H]2NC(=O)N[C@@H]21)C(=O)N[C@@H](Cc1ccc(OP(=O)(O)O)cc1)C(=O)N[C@@H](CCCNC(=N)N)C(=O)N[C@@H](CO)C(=O)N[C@H](C(=O)N[C@@H](CC(C)C)C(=O)N[C@@H](CC(N)=O)C(N)=O)[C@@H](C)CC
Kd (Tyrosine-protein kinase CSK, SH2 domain (CSK, Homo sapiens, UniProt P41240); SPR; with: SH2 domain): 4100 ± 200 nM

CC[C@H](C)[C@H](NC(=O)[C@H](CO)NC(=O)[C@@H]1CCCN1C(=O)[C@@H](NC(=O)[C@H](CC(N)=O)NC(=O)[C@H](CC(C)C)NC(=O)[C@H](CCSC)NC(=O)[C@H](CCCCN)NC(=O)[C@H](CC(C)C)NC(=O)[C@@H]1CCCN1C(=O)[C@@H](N)CC(C)C)[C@@H](C)CC)C(=O)N[C@@H](CC(N)=O)C(=O)N[C@H](C(=O)N[C@@H](Cc1c[nH]cn1)C(=O)O)C(C)C
IC50 (HLA class I histocompatibility antigen, A alpha chain allele A*25:01): > 20000 nM

CC[C@H](C)[C@H](NC(=O)[C@@H](NC(=O)[C@@H](NC(=O)[C@@H](NC(=O)[C@@H]1CCCN1C(=O)[C@H](Cc1c[nH]cn1)NC(=O)[C@@H]1CCCN1C(=O)CN)C(C)(C)C)[C@@H](C)CC)C(C)(C)C)C(=O)N[C@H](C(=O)NCC(=O)N1CCC[C@H]1C(=O)N[C@@H](Cc1c[nH]cn1)C(=O)N[C@@H](CCC(=O)O)C(=O)N[C@@H](CCC(=O)O)C(=O)O)[C@@H](C)O
Kd (Protein phosphatase 3 catalytic subunit alpha, with calcineurin B (PPP3CA, Homo sapiens, UniProt Q08209); binding): 50 nM
